Measured values of several laboratories.
Lines come from different studies, so protocols differ. “And” joins repeats or separate records; there may be more than shown.
Chain of UniProt P46934 (whole entry, looked up): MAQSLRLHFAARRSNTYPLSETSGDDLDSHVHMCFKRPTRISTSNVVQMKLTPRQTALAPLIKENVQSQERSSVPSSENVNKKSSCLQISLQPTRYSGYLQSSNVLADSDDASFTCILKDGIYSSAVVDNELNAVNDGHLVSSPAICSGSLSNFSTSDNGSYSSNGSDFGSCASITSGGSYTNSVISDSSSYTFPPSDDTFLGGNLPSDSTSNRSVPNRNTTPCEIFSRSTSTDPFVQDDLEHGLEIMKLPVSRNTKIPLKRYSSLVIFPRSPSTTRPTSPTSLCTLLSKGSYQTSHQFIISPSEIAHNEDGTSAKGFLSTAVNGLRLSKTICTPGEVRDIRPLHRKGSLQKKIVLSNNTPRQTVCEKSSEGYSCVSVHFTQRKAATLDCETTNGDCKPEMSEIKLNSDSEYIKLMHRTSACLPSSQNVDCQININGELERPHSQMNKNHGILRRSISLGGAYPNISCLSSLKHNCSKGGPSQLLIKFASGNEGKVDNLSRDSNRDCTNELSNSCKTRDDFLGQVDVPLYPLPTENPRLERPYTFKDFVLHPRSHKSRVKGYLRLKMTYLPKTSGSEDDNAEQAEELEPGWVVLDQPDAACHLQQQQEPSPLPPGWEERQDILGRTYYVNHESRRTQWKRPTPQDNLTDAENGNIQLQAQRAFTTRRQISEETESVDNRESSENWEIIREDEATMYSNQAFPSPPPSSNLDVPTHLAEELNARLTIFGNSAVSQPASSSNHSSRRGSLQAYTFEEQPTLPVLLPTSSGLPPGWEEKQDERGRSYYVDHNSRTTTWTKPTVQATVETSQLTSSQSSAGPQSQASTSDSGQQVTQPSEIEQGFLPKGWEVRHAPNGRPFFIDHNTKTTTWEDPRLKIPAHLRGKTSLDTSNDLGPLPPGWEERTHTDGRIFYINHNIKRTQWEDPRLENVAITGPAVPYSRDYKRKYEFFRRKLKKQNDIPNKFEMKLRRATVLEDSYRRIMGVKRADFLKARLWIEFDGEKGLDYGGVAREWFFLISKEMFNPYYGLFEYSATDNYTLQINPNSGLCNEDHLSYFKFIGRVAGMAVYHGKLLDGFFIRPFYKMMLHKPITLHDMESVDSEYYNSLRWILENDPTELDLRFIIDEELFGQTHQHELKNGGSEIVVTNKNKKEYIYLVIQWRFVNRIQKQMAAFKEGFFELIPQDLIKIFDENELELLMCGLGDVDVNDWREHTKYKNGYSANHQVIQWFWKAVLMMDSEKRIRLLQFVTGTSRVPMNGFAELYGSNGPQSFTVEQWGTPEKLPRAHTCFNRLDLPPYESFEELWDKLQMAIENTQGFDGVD

| Structure (SMILES) | tested on | assay | test system | conditions | how to read | endpoint | value |
| --- | --- | --- | --- | --- | --- | --- | --- |
| CCOC(=O)/C=C/CN(CCCCN1c2ccccc2CCc2ccc(Cl)cc21)Cc1ccccc1.O=C(O)/C=C\C(=O)O | E3 ubiquitin-protein ligase NEDD4, HECT domain (Homo sapiens, UniProt P46934) | enzyme activity, inhibitor, Ub-TR-FRET | HECT domain | 1.235 µM | higher = more chain formation | ubiquitin chain formation AUC | 104000 a.u. and 99500 a.u. and 97000 a.u. and 99400 a.u. and 108000 a.u. |
| Cn1cc(-c2cccc(CN3CCC4(CC3)COc3c4ccc4c3CN([C@H]3CCC(=O)NC3=O)C4=O)c2)cn1 |  |  | mouse, Crbn I391V, spleen | oral, 30 mg/kg |  | Cmax | ~3.66 µM |
| C=CCN1C(=O)C(O)(C(=O)O)Oc2cc(F)ccc21 (centres unmarked) | Arabidopsis thaliana | hypocotyl length | Col-0, seedlings | 25 µg/mL |  | inhibition | 18.3% |
| CC(C)(C)n1nc(-c2ccc(Cl)cc2)c2c(N)ncnc21 | L929 | necroptosis protection, CCK-8 |  | 1.667 µM, together with: TNF-α-induced |  | viability | 42.2% |
| N=C(N)NCCCCCCN1CCC23c4c5ccc(O)c4OC2c2nc4ccccc4cc2CC3(O)C1C5 (centres unmarked) |  | modified Racine scale | C57BL/6J mice, male | intracerebroventricular, 100 nmol, 30 min | direction not given | seizure score | 0 |

A few entries again:
| Structure (SMILES) | tested on | assay | test system | conditions | how to read | endpoint | value |
| --- | --- | --- | --- | --- | --- | --- | --- |
| C=CCN1C(=O)C(O)(C(=O)O)Oc2cc(F)ccc21 (centres unmarked) | Arabidopsis thaliana | hypocotyl length | Col-0, seedlings | 25 µg/mL |  | inhibition | 18.3% |
